Experimental data collected from several papers.
Compare with care: the assays were run in different laboratories.
NR3C1: Glucocorticoid receptor (NR3C1, Homo sapiens, UniProt P04150)
F2: Prothrombin (F2, Bos taurus, UniProt P00735)
PTPN5: Tyrosine-protein phosphatase non-receptor type 5 (PTPN5, Homo sapiens, UniProt P54829)

By UniProt entry, the sequences of proteins in these tests, tags left out. Residues count along the entry.
UniProt P04150, whole entry: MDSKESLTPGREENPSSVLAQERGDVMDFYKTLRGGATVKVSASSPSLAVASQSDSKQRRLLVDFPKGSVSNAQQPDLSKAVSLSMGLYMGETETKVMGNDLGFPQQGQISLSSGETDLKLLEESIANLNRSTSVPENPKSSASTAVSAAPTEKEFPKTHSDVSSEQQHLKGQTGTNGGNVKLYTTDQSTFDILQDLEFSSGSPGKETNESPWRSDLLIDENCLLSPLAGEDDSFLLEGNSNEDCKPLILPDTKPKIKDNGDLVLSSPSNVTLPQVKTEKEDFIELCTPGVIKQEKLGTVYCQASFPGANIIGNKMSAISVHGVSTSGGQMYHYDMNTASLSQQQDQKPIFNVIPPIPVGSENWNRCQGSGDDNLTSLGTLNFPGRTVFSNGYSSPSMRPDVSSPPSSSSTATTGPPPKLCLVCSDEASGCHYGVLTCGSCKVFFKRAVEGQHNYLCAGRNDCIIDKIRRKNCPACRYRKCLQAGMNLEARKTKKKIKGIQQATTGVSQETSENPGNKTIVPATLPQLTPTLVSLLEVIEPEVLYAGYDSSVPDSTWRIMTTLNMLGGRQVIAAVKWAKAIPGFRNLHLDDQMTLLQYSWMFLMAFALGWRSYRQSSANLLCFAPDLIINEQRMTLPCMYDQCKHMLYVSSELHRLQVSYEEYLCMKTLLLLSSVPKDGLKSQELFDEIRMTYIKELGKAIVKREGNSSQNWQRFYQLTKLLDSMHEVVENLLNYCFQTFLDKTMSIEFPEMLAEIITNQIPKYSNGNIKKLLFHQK
UniProt P54829, whole entry: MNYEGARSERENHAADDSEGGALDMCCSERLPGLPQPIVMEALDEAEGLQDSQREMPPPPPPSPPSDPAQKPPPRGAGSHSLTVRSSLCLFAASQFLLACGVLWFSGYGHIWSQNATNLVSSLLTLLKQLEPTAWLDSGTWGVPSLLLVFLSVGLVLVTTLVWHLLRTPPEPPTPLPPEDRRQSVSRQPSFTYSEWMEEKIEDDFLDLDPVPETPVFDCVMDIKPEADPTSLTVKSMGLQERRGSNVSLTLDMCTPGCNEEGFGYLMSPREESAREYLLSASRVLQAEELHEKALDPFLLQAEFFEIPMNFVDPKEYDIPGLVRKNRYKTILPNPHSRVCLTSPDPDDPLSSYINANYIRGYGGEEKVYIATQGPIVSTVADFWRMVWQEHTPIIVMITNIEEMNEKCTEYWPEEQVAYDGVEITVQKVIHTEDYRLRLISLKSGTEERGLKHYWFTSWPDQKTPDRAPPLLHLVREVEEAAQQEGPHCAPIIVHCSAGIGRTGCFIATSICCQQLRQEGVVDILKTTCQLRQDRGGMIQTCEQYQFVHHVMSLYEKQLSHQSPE
UniProt Q9H2K8, whole entry: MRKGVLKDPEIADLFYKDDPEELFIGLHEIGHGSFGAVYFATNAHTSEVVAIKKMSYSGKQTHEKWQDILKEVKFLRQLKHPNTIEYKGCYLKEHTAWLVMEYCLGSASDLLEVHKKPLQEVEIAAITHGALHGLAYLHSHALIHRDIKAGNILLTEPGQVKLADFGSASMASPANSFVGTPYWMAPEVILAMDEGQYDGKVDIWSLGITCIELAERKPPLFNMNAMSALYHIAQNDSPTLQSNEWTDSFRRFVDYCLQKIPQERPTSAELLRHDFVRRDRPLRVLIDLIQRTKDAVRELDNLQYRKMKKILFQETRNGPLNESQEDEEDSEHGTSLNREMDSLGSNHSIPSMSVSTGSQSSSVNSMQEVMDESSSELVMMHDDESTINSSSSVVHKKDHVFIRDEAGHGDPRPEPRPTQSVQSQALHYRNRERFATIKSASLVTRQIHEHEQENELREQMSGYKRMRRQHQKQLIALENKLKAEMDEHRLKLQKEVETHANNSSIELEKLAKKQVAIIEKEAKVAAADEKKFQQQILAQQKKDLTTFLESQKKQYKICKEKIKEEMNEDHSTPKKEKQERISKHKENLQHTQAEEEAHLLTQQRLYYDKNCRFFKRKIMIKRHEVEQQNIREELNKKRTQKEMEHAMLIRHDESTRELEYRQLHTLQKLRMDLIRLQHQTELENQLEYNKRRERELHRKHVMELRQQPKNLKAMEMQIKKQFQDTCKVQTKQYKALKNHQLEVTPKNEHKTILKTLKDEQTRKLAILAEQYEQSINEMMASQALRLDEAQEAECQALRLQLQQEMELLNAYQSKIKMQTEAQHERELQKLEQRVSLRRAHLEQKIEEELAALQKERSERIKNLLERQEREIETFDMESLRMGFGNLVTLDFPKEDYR
UniProt P53667, whole entry: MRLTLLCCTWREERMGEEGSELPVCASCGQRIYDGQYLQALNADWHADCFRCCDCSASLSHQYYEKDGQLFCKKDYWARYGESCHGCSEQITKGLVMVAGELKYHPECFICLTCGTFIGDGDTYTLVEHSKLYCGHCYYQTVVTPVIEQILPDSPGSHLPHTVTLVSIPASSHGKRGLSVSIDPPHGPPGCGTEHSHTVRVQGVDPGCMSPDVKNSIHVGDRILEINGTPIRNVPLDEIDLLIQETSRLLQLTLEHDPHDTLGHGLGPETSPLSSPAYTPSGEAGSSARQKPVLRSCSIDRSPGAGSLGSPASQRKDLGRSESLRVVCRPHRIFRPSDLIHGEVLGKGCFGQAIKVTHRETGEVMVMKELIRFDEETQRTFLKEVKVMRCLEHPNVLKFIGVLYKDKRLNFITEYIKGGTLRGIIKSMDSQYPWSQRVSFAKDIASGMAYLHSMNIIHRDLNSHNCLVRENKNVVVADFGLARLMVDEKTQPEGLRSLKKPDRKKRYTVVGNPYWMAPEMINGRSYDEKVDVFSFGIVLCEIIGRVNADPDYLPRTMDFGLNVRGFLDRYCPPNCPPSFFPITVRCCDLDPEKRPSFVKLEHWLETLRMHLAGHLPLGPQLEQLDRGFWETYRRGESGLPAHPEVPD
UniProt Q04771, 21-509 R206H limits assumed: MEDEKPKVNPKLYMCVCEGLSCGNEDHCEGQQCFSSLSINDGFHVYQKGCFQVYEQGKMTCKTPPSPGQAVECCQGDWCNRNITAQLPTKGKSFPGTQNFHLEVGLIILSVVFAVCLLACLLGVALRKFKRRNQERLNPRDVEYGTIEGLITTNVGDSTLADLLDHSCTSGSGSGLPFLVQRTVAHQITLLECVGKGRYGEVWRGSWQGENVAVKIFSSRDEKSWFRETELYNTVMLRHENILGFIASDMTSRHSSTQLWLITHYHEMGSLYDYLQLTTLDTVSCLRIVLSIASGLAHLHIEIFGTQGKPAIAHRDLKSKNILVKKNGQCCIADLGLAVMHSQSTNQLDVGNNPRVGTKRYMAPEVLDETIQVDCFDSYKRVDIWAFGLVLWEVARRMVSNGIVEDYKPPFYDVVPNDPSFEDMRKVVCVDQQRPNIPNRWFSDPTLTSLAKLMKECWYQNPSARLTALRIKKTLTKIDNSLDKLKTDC
UniProt Q8N568, whole entry: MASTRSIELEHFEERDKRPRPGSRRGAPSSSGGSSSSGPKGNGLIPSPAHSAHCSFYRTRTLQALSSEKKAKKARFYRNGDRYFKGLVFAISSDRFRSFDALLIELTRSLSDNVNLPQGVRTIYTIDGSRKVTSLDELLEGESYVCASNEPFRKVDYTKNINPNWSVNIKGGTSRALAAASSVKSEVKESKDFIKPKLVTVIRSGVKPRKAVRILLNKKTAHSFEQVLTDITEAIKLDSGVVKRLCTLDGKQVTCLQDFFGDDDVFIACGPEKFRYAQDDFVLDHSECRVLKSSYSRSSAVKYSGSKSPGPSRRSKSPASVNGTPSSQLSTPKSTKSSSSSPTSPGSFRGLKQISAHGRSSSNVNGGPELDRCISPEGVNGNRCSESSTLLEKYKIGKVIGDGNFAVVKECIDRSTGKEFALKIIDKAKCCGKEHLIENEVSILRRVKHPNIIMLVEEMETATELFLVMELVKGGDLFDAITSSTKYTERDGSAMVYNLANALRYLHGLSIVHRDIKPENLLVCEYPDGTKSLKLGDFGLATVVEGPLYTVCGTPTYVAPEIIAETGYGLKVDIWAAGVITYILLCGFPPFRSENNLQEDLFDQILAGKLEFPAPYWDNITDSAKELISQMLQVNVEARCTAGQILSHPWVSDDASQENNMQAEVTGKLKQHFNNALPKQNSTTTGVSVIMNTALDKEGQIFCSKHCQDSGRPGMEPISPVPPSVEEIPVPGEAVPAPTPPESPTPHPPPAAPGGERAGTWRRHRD
UniProt Q13131, whole entry: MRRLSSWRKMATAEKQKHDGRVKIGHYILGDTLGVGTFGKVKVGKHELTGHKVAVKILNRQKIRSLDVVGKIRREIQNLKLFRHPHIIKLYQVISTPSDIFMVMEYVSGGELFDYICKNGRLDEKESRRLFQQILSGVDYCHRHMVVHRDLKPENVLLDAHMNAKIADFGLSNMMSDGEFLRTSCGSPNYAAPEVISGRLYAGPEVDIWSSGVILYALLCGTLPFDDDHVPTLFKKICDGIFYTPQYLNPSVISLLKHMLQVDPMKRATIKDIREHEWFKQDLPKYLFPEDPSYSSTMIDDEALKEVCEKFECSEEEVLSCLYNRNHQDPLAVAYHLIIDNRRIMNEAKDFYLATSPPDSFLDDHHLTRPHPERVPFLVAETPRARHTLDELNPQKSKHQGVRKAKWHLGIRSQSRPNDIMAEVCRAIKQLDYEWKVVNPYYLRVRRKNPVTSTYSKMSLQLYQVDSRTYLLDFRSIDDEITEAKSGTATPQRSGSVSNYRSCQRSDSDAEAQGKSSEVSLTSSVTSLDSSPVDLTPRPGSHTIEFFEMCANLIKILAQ
UniProt P36888, 27-993 limits assumed: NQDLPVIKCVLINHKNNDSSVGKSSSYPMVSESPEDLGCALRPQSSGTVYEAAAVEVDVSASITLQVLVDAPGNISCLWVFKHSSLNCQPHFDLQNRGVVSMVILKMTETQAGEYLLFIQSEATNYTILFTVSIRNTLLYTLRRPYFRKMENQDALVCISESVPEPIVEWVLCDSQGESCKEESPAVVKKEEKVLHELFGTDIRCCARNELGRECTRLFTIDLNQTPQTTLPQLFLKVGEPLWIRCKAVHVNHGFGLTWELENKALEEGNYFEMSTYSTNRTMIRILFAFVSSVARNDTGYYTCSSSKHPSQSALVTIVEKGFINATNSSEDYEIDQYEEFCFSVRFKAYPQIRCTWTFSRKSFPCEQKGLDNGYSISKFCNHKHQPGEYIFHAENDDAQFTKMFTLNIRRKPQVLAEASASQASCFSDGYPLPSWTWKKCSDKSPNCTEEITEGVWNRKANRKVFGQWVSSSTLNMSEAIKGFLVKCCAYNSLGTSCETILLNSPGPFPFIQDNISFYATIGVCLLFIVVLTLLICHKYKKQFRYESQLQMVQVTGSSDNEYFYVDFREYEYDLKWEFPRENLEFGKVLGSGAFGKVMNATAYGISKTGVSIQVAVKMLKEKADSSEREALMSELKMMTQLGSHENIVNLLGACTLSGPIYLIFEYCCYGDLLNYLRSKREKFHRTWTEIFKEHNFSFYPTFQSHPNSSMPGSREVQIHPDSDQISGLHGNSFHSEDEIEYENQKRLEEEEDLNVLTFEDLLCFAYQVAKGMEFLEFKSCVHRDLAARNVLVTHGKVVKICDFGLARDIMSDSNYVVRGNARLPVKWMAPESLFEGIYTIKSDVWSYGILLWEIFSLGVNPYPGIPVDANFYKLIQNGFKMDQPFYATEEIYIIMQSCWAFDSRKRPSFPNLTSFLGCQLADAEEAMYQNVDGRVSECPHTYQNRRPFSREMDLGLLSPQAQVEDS
UniProt P35236, whole entry: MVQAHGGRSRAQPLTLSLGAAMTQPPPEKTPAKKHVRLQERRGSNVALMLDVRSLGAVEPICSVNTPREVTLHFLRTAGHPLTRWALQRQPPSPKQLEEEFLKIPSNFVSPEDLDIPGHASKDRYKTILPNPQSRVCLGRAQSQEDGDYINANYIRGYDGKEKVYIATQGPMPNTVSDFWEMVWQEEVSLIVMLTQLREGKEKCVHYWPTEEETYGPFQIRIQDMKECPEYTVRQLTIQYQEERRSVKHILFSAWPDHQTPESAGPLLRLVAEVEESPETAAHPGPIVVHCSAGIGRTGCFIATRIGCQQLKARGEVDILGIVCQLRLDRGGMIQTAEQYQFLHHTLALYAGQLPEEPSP
UniProt Q13882, whole entry: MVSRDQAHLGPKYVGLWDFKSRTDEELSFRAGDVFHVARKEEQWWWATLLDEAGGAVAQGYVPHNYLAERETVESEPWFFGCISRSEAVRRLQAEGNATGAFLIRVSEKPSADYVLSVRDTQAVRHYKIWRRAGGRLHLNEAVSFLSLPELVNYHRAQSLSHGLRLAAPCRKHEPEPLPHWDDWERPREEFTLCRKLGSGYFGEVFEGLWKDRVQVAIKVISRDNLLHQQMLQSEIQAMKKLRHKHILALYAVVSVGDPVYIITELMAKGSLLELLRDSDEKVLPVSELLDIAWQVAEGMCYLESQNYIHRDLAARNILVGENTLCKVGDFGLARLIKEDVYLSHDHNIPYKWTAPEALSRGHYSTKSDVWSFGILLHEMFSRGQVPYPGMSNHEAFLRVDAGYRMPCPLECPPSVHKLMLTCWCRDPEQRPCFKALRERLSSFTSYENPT

Compound = C[C@]12CC[C@H]3c4ccc(OCC(=O)O)cc4CC[C@@H]3[C@H]1CCC2=O; target or system = NR3C1; assay = nuclear translocation, agonist, enzyme fragment complementation; endpoint = EC50; result = > 9 µM
Compound = CCN1CCN(Cc2ccc(NC(=O)c3ccc(C)c(Oc4ncnc5cc(OC)c(OC)cc45)c3)cc2C(F)(F)F)CC1; target or system = Serine/threonine-protein kinase TAO3 (TAOK3, Homo sapiens, UniProt Q9H2K8); assay = enzyme activity, Z'-LYTE; setting = added: ATP at Km; endpoint = IC50; result = 0.509 µM
Compound = O=C1C=C(NCCc2cc(Br)c(O)c(Br)c2)C(=O)c2ncccc21; target or system = Ezrin (Ezr, Mus musculus, UniProt P26040); assay = ezrin phosphorylation, inhibitor; setting = 30 min, 30 °C, added: PKCι; endpoint = IC50; result = 8.1 µM
Compound = COc1cccc(CNC(=O)Nc2ccc(-c3cn[nH]c3)cc2)c1; target or system = LIM domain kinase 1 (LIMK1, Homo sapiens, UniProt P53667); assay = enzyme activity, inhibitor; endpoint = IC50; result = > 10 µM
Compound = COc1cc(-c2nc3ccc(C(=O)NCCCN4CCN(C)C(c5ccccc5)C4)cc3n2C2CCC2)cc(OC)c1OC (centres unmarked); target or system = Activin receptor type-1 (ACVR1, Homo sapiens, UniProt Q04771, R206H); assay = target engagement, NanoBRET; test system = HEK293; endpoint = IC50; result = 4.28 µM
Compound = O=C(Nc1ccc(Cl)c(Cl)c1)Nc1nnc(-c2ccc(Br)cc2)s1; target or system = F2; assay = enzyme activity; setting = 30 min preincubation, added: pyroGlu-Pro-Arg-pNA; endpoint = IC50; result = > 20 µM
Compound = CN1C(=O)c2ccccc2N(C)c2nc(Nc3ccc(N4CCC(O)CC4)cc3)ncc21; target or system = Serine/threonine-protein kinase DCLK2 (DCLK2, Homo sapiens, UniProt Q8N568); assay = kinase activity; endpoint = IC50; result = < 0.1 µM
Compound = COc1cc(CC(=O)NCC(NC(=O)C(CCCNC(=O)c2cccc(I)c2)NC(=O)C(Cc2ccc(C(F)(F)P(=O)(O)O)cc2)NC(=O)c2ccc(C)c(Br)c2)C(N)=O)ccc1O (centres unmarked); target or system = Tyrosine-protein phosphatase non-receptor type 12 (PTPN12, Homo sapiens, UniProt Q05209); assay = enzyme activity; setting = 10 µM; endpoint = inhibition; result = no inhibition
Compound = CC(C)C[C@@H](NC(=O)[C@H](O)Cc1ccccc1)C(=O)N1[C@H](C(=O)NCCC2=CCN(C(=N)N)C2)C[C@@H]2CC[C@@H](O[C@H]3OC[C@@H](O)[C@H](O)[C@H]3O)C[C@@H]21; target or system = Trypsin (Sus scrofa, UniProt P00761); assay = enzyme activity, inhibitor; endpoint = IC50; result = 67 µg/mL
Compound = O=c1oc(-c2cccc(F)c2)nc2ccc(Cc3ccc4nc(-c5cccc(F)c5)oc(=O)c4c3)cc12; target or system = F2; assay = enzyme activity; setting = 30 min preincubation, added: pyroGlu-Pro-Arg-pNA; endpoint = IC50; result = > 20 µM
Compound = CN1C/C(=C\c2ccccn2)C(=O)[C@@H](Cc2ccccn2)C1; target or system = 5'-AMP-activated protein kinase catalytic subunit alpha-1, with beta1 gamma1 subunits (PRKAA1, Homo sapiens, UniProt Q13131); assay = enzyme activity, inhibitor, Z'-LYTE; setting = AMPK A1/B1/G1 complex; endpoint = IC50; result = 10 µM
Compound = O=c1/c(=C/c2ccc(-c3ccccc3[N+](=O)[O-])o2)sc2nc3cc(Br)cnc3n12; target or system = PTPN5; assay = phosphatase activity, inhibitor; setting = added: OMFP; endpoint = IC50; result = > 100 µM
Compound = COc1cc2ncc(-c3cccc(NC4CCNC4)n3)n2cc1-c1cn[nH]c1 (centres unmarked); target or system = Receptor-type tyrosine-protein kinase FLT3 (FLT3, Homo sapiens, UniProt P36888); assay = kinase activity, inhibitor; endpoint = IC50; result = < 0.0005 µM
Compound = Cc1cc(C)c2nc3s/c(=C\c4ccc(-c5ccccc5C(=O)O)o4)c(=O)n3c2c1; target or system = Tyrosine-protein phosphatase non-receptor type 7 (PTPN7, Homo sapiens, UniProt P35236); assay = phosphatase activity, inhibitor; setting = added: OMFP; endpoint = IC50; result = 1.8 µM
Compound = O=C(Nc1cccnn1)N1CC(Oc2ccc(-c3ccccc3F)cn2)C1; test system = healthy humans; setting = oral, dose not given, day 7, once daily dosing; how to read = relative to: exposure at half dose; endpoint = Cmax fold per doubling; result = 1.7 fold
Compound = O=c1/c(=C/c2ccccc2Cl)sc2nc3cc(Br)cnc3n12; target or system = PTPN5; assay = phosphatase activity, inhibitor; setting = added: OMFP; endpoint = IC50; result = > 100 µM
Compound = O=C(O)c1ccc(/C=C2\SC(=S)N(c3cccc(C(F)(F)F)c3)C2=O)cc1; target or system = Cystic fibrosis transmembrane conductance regulator (CFTR, Homo sapiens, UniProt P13569); assay = iodide influx, inhibitor, microfluidic YFP fluorescence; test system = FRT cells expressing CFTR; setting = 10 min, added: 5 µM forskolin, 140 mM iodide; endpoint = IC50; result = 0.65 µM
Compound = C[C@@]12CC[C@@H]3[C@@H](CC[C@H]4C[C@@H](O)CC[C@]43C)[C@H]1CC[C@@H]2c1cc(C(F)(F)F)n[nH]1; target or system = NR3C1; assay = nuclear translocation, agonist, enzyme fragment complementation; endpoint = EC50; result = > 9 µM
Compound = O=c1/c(=C/c2ccc(-c3cc(Cl)cc(Cl)c3)o2)sc2nc3cc(Br)cnc3n12; target or system = Tyrosine-protein phosphatase non-receptor type 22 (PTPN22, Homo sapiens, UniProt Q9Y2R2); assay = phosphatase activity, inhibitor; setting = added: OMFP; endpoint = IC50; result = > 100 µM
Compound = COc1cc(N2CCN(C)CC2)ccc1Nc1ncc2c(n1)N(C)c1ccccc1C(=O)N2; target or system = Protein-tyrosine kinase 6 (PTK6, Homo sapiens, UniProt Q13882); assay = kinase activity, inhibitor; setting = off-target; endpoint = IC50; result = 0.047 µM

A few entries again:
Compound = COc1cc2ncc(-c3cccc(NC4CCNC4)n3)n2cc1-c1cn[nH]c1 (centres unmarked); target or system = Receptor-type tyrosine-protein kinase FLT3 (FLT3, Homo sapiens, UniProt P36888); assay = kinase activity, inhibitor; endpoint = IC50; result = < 0.0005 µM
